Experimental data gathered from unrelated publications.
Protocols differ between the studies behind these lines. “And” joins repeats or separate records; there may be more than shown. ± gives the spread as reported.
Cell line: A549

Structure (SMILES) = O=c1n(CCNCCOS(=O)(=O)c2ccccc2)c(=O)n(S(=O)(=O)c2ccccc2)c(=O)n1S(=O)(=O)c1ccccc1; assay = cell growth or viability, MTT; conditions = 12.5 µg/mL, 48 h; measurement = viability; result = 45.6%
Structure (SMILES) = CC(C)[C@H](NC(=O)[C@H](CCCNC(=N)N)NC(=O)[C@@H]1CCCN1C(=O)[C@@H](NC(=O)[C@H](C)NC(=O)[C@H](Cc1ccc(O)cc1)NC(=O)[C@H](CCC(N)=O)NC(=O)[C@H](CCCCN)NC(=O)[C@H](CCCNC(=N)N)NC(=O)[C@@H]1CCCN1C(=O)[C@H](CCC(=O)O)NC(=O)[C@@H](NC(=O)[C@H](C)N)[C@@H](C)O)[C@@H](C)O)C(=O)N[C@@H](Cc1ccccc1)C(=O)N[C@@H](Cc1c[nH]c2ccccc12)C(=O)N[C@H](C(=O)N[C@@H](CC(=O)O)C(=O)N[C@@H](C)C(=O)N1CCC[C@H]1C(=O)NCC(=O)NCCOCCOCCOCCOCCOCCOCCOCCOCCOCCOCCOCCOCCC(=O)N[C@@H](CS)C(N)=O)[C@@H](C)O; assay = phage binding; how to read = relative to: targeting over control phage; measurement = selectivity ratio; result = 1.1 ± 0.32
Structure (SMILES) = CCC1CC(c2ccc(C(=O)O)cc2C)=NN1c1ccc(C#N)c(Cl)c1 (centres unmarked); assay = cell growth or viability; conditions = 48 h; measurement = EC50; result = > 50000 nM
Structure (SMILES) = CCCc1cc2cc(-n3nc(CC)c4c3CC3(CCC3)CC4=O)cc(N3CCC(O)CC3)c2c(=O)[nH]1; assay = cell growth or viability, MTS; measurement = IC50; result = 2590 nM
Structure (SMILES) = O=C1C=CC(=O)c2c(O)ccc(O)c21; assay = cell growth or viability, MTT; measurement = IC50; result = 1420 nM
Structure (SMILES) = CC(C)(C)C(=O)OCOP(=O)(OCOC(=O)C(C)(C)C)C1CCCN(O)C1=O (centres unmarked); measurement = Log10TGI; result = > -4 log M
Structure (SMILES) = C[C@H]1O[C@@H](O[C@H]2CC[C@@]3(C)[C@H](CC[C@@H]4[C@@H]3C[C@@H](O)[C@]3(C)[C@@H](C5=CC(=O)OC5)CC[C@]43O)C2)C[C@H](O)[C@@H]1O[C@@H]1O[C@H](CO)[C@@H](O)[C@H](O)[C@H]1O; assay = cell growth or viability, MTT; conditions = 5 µM, 24 h; measurement = inhibition; result = 74.7%
Structure (SMILES) = C#CCCCC[C@H](C)C[C@@H](C)C(=O)N(C)[C@H](C(=O)N(C)[C@@H](Cc1ccccc1)C(=O)N1CCC[C@H]1C(=O)N1CCC[C@H]1C(C)=O)C(C)C; assay = cell growth or viability, SRB; measurement = IC50; result = 149 nM and 160 nM and 183 nM
Structure (SMILES) = CC(C)Cc1ccc(C(C)C(=O)[O-])cc1.CC(C)Cc1ccc(C(C)C(=O)[O-])cc1.O.[Cu+2].c1ccncc1.c1ccncc1 (centres unmarked); assay = MTT; conditions = 48 h; measurement = total growth inhibition (TGI); result = 40000 ± 2800 nM
Structure (SMILES) = C[C@H]1O[C@@H](O[C@H]2CC[C@@]3(C)[C@H](CC[C@@H]4[C@@H]3C[C@@H](O)[C@]3(C)[C@@H](C5=CC(=O)OC5)[C@@H](O)C[C@]43O)C2)C[C@H](O)[C@@H]1O; assay = cell growth or viability, MTT; conditions = 5 µM, 24 h; measurement = inhibition; result = 73.1%
Structure (SMILES) = O=C1C=CC(=O)c2ccccc21; assay = cell growth or viability, MTT; measurement = IC50; result = 53500 nM
Structure (SMILES) = Cc1ccccc1/C=C/C(=O)N[C@@H](CO)C(=O)N[C@H](C(=O)N[C@H](Cc1ccccc1)C(=O)N[C@@H]1C(=O)N2[C@@H](CC(=O)O)C(=O)Nc3ccccc3[C@@]2(O)[C@@H]1O)[C@@H](C)O; measurement = IC50; result = > 20000 nM
Structure (SMILES) = CC(=O)NCSC[C@H](NC(=O)[C@@H]1CCCN1C(=O)[C@H](C)NC(=O)[C@@H](NC(=O)CNC(=O)[C@@H](NC(=O)[C@H](Cc1c[nH]c2ccccc12)NC(=O)[C@H](C)NC(=O)CNC(=O)[C@H](CO)NC(=O)[C@H](C)NC(=O)[C@@H]1CCCN1C(=O)[C@H](Cc1c[nH]c2ccccc12)NC(=O)[C@H](C)NC(=O)[C@H](C)NC(=O)[C@@H](N)Cc1ccc(O)cc1)[C@@H](C)O)[C@@H](C)O)C(=O)N[C@@H](CO)C(=O)N[C@@H](C)C(=O)NCC(=O)N[C@H](C(=O)NCCOCCOCCOCCOCCOCCOCCOCCOCCOCCOCCOCCOCCC(=O)N[C@@H](CS)C(N)=O)[C@@H](C)O; assay = phage binding; how to read = relative to: targeting over control phage; measurement = selectivity ratio; result = 17 ± 3.9
Structure (SMILES) = COC(=O)[C@H](C(C)C)N(C)C(=O)[C@H](C(C)C)N(C)C(=O)[C@@H]1CCCN1C(=O)[C@H](C)N(C)C(=O)OC(C)(C)C; assay = cell growth or viability, SRB; measurement = IC50; result = 2940 nM and 3610 nM and 3120 nM
Structure (SMILES) = O=C1C=CC(=O)c2c(O)cccc21; assay = MTT; how to read = relative to: IC50 MRC-5 over IC50 A549; measurement = selectivity index; result = 0.1
Structure (SMILES) = CC(=O)O[C@H]1C[C@H](O[C@H]2[C@@H](O)C[C@H](O[C@H]3[C@@H](O)C[C@H](O[C@H]4CC[C@@]5(C)[C@H](CC[C@@H]6[C@@H]5CC[C@]5(C)[C@@H](C7=CC(=O)OC7)[C@@H](O)C[C@]65O)C4)O[C@@H]3C)O[C@@H]2C)O[C@H](C)[C@H]1O[C@@H]1O[C@H](CO)[C@@H](O)[C@H](O)[C@H]1O; assay = cell growth or viability, MTT; conditions = 5 µM, 24 h; measurement = inhibition; result = 73.8%
Structure (SMILES) = CC(C)C12OC1C1OC13C1(C)CCC4=C(COC4=O)C1CC1OC13C2OC(=O)CCCOC1OC(CO)C(O)C(O)C1O (centres unmarked); assay = cell growth or viability, XTT; conditions = 47 h; measurement = IC50; result = 2720 nM
Structure (SMILES) = Cc1ccc(C(C)C)cc1.F[P-](F)(F)(F)(F)F.[Cl][Os+]1[N]2C=CC=c3ccc4c(c32)[N]1C=CC=4; assay = cell growth or viability, MTT; measurement = IC50; result = 82800 nM
Structure (SMILES) = O=C1C(Cl)=C(Cl)C(=O)c2ccccc21; assay = MTT; how to read = relative to: IC50 MRC-5 over IC50 A549; measurement = selectivity index; result = 3.01
Structure (SMILES) = Cc1cc(Oc2nc(N3CC[C@@H](c4ccncc4)C3)ncc2F)[nH]n1; assay = cell proliferation; test system = lung cancer; measurement = IC50; result = 40700 nM
Structure (SMILES) = Cc1c(Cl)c(=O)oc2cc(OCCCCCC[Se]C#N)ccc12; assay = cell growth or viability, SRB; measurement = GI50; result = 20000 nM
Structure (SMILES) = CC1OC(OC2CCC3(C)C(CCC4C3CCC3(C)C(C5=CC(=O)OC5)CCC43O)C2)C(O)C(O)C1OC1OC(CO)C(O)C(O)C1O (centres unmarked); assay = cell growth or viability, MTT; conditions = 5 µM, 24 h; measurement = inhibition; result = 75.7%
Structure (SMILES) = C#CCCCC[C@H](C)C[C@@H](C)C(=O)N[C@@H](C)C(=O)N1CCC[C@H]1C(=O)N[C@H](C(=O)N[C@H](C(=O)N[C@H](C(=O)N[C@@H](Cc1ccccc1)C(=O)N1CCC[C@H]1C(=O)N1CCC[C@H]1C(C)=O)C(C)C)C(C)C)C(C)C; assay = cell growth or viability, SRB; measurement = IC50; result = 2230 nM and 2190 nM and 2220 nM

Repeated from above:
Structure (SMILES) = CC(C)C12OC1C1OC13C1(C)CCC4=C(COC4=O)C1CC1OC13C2OC(=O)CCCOC1OC(CO)C(O)C(O)C1O (centres unmarked); assay = cell growth or viability, XTT; conditions = 47 h; measurement = IC50; result = 2720 nM
